Published values collected from several papers.
Lines come from different studies, so protocols differ. Numbers after ± are the reported error. Ends that are not written are not given here.
B1: protein 16-92 (Mycobacterium tuberculosis, UniProt P96276); chain EVADGLTRREHDILAFERQWWKFAGVKEEAIKELFSMSATRYYQVLNALVDRPEALAADPMLVKRLRRLRASRQKAR
Sequence of UniProt Q62976 (whole entry, unmodified, looked up): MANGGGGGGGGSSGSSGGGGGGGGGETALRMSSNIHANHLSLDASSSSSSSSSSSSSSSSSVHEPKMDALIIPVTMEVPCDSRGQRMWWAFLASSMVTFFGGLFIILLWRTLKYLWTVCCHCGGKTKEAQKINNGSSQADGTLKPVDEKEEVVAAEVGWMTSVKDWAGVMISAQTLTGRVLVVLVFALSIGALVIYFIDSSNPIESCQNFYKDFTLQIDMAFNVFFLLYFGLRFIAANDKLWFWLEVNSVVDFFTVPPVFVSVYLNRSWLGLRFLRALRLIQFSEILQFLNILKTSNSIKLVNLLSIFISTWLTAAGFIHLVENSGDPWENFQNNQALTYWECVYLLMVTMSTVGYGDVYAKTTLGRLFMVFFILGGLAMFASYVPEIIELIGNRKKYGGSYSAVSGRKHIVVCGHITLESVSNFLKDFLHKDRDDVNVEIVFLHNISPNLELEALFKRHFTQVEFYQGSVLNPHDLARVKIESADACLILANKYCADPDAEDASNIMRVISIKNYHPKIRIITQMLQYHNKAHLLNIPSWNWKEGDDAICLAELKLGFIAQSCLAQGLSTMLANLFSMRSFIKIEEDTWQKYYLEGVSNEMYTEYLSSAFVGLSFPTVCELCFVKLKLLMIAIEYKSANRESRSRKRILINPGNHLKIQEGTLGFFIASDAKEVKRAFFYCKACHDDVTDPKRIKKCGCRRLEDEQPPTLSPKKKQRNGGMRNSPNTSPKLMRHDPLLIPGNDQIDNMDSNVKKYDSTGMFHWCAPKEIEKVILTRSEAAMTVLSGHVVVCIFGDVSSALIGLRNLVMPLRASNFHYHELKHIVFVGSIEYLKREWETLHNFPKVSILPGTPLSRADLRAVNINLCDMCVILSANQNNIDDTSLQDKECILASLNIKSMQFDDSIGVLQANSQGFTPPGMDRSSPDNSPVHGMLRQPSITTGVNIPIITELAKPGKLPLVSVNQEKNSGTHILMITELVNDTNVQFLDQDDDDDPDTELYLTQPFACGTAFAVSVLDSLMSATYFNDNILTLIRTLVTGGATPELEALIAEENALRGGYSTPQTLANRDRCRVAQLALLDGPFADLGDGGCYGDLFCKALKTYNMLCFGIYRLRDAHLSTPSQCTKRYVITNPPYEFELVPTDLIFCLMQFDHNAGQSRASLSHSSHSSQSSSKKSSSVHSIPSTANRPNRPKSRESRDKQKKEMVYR

`QPLRKLCILHRNPGRCYQKIPAFYYNQKKKQCEGFTWSGCGGNSNRFKTIEECRRTCIRK (dendrotoxin I; ends and bridges not checked; cysteine pairing not given here; sequence looked up)` gave a ΔΔG‡ dissociation of 1.1 kcal/mol (Calcium-activated potassium channel subunit alpha-1 (Kcnma1, Rattus norvegicus, UniProt Q62976); blocker, planar bilayer single channel; with: BP; reference: singly occupied channel).
`cysH (Mycobacterium tuberculosis, UniProt P9WIK3)` gave a Km of 24.3 µM (Nc1ncnc2c1ncn2[C@@H]1O[C@H](COP(=O)(O)OS(=O)(=O)O)[C@@H](O)[C@H]1O; steady-state kinetics; pH 7.5).
For `DAVNLLTNM`, “response magnitude per positive donor” read 108 (AIM; peptide, CD8+ T cells from PBMC, human donors; dose not given).
`p2o (Trametes ochracea, UniProt Q7ZA32)` gave a Km of 200 µM (Nc1ccc2nc3ccc(N)cc3[s+]c2c1; steady-state kinetics; pH 6.5, 22 °C, apparent).
For `TSNQVAVLY`, “response magnitude per positive donor” read 109 (AIM; peptide, CD8+ T cells from PBMC, human donors; dose not given).
For `gag MA matrix protein p17, N-terminal myristoyl (Human immunodeficiency virus type 1, UniProt P12493)`, the pKa was 6.5 (NMR, refers to: His89; free protein).
For `CC[C@H](C)[C@H](NC(=O)[C@H](CC(C)C)NC(=O)[C@H](CO)NC(=O)[C@H](Cc1c[nH]cn1)NC(=O)[C@@H](NC(=O)[C@H](CC(C)C)NC(=O)[C@H](CO)NC(=O)[C@@H](NC(=O)[C@H](Cc1ccc(O)cc1)NC(=O)[C@H](CC(N)=O)NC(=O)[C@H](CC(N)=O)NC(=O)[C@@H](NC(=O)[C@H](CCC(=O)O)NC(=O)[C@H](CCCNC(=N)N)NC(=O)[C@H](CC(=O)O)NC(=O)[C@H](Cc1c[nH]c2ccccc12)NC(=O)[C@H](CCC(=O)O)NC(=O)[C@H](CCSC)NC(=O)[C@H](Cc1c[nH]c2ccccc12)NC(C)=O)[C@@H](C)CC)[C@@H](C)O)[C@@H](C)CC)C(=O)N[C@@H](CCC(=O)O)C(=O)N[C@@H](CCC(=O)O)C(=O)N[C@@H](CO)C(=O)N[C@@H](CCC(N)=O)C(=O)N[C@@H](CC(N)=O)C(=O)N[C@@H](CCC(N)=O)C(=O)N[C@@H](CCC(N)=O)C(=O)N[C@@H](CCC(=O)O)C(=O)N[C@@H](CCCCN)C(=O)N[C@@H](CC(N)=O)C(=O)N[C@@H](CCC(=O)O)C(=O)N[C@@H](CCC(N)=O)C(=O)N[C@@H](CCC(=O)O)C(=O)N[C@@H](CC(C)C)C(=O)N[C@@H](CC(C)C)C(=O)NCC(=O)N[C@@H](CO)C(=O)NCC(=O)N[C@@H](CSCC(=O)O[C@H]1CC[C@@]2(C)C(=CC[C@H]3[C@@H]4CC[C@H]([C@H](C)CCCC(C)(C)O)[C@@]4(C)CC[C@@H]32)C1)C(N)=O`, the partition coefficient was 516 ± 90 (Trp fluorescence; POPC/cholesterol vesicles; 5 µM, pH 7.4, 25 °C).
Under “subunits per oligomer”, `B1 (protein 16-92)` is recorded as 2 (itself; crystal structure).
The inhibition of `bivalirudin` is reported as -0.221% (Replicase polyprotein 1ab, main protease (rep, Severe acute respiratory syndrome coronavirus 2, UniProt P0DTD1); enzyme activity, mKate2 fluorescence reporter; SARS-CoV-2; 20 µM).
For `CA C-terminal domain (HIV-1)`, the pKa was 4.37 (NMR, refers to: Glu175; 7 °C, sodium phosphate 25 mM, numbering of the source).
For `FolB (Mycobacterium tuberculosis, UniProt P9WNC5)`, the Km was 0.154 µM (Nc1nc2c(c(=O)[nH]1)N=C([C@H](O)[C@@H](O)CO)CN2; steady-state kinetics; pH 7, 25 °C).
The kcat of `PaFS D92A (Diaporthe amygdali)` is reported as 1.6 ± 0.2 s⁻¹ (CC(C)=CCC/C(C)=C/CC/C(C)=C/CO[P@@](=O)(O)OP(=O)(O)O; steady-state kinetics).
